# Measured values of several laboratories.
# Compare with care: the assays were run in different laboratories. Numbers after ± are the reported error.
SMILES,assay,system,conditions,measurement,result
COc1ccc(C2CC(c3ccc(C)cc3)=Nc3ccccc3S2)cc1 (stereo not drawn),,"Wistar rat, streptozotocin-induced diabetes, serum","20 mg/kg, 28 days",serum creatinine,0.68 ± 0.29 mg/dL
Cc1cc(O)c(C=O)c2c1C(=O)Oc1c(CO)c(O)c3c(c1O2)C(O)OC3=O (stereo not drawn),,"streptozotocin-induced diabetic male rats, serum","5 mg/kg, 5 weeks",serum insulin,5.06 ± 0.26 mIU/L
O=c1c(OCc2ccccc2)c(-c2cccc([N+](=O)[O-])c2)oc2ccccc12,,diabetic rat,"7.5 mg/kg, 28 days, p-nitrophenyl β-glucoside induced",serum total cholesterol,148 ± 4.77 mg/dL
CCCC[C@H](NC(=O)[C@@H](NC(=O)[C@H](CC(=O)O)NC(=O)[C@H](CCC(N)=O)NC(=O)[C@H](CC(C)C)NC(=O)[C@H](CC(C)C)NC(=O)[C@H](CCCN)NC(=O)[C@H](CCCNC(=N)N)NC(=O)[C@H](C)NC(=O)[C@H](CO)NC(=O)[C@H](CC(C)C)NC(=O)[C@H](CCC(N)=O)NC(=O)[C@H](CC)NC(=O)[C@H](CC(C)C)NC(=O)[C@@H](NC(=O)[C@H](CCCN)NC(=O)[C@H](CCCNC(=N)N)NC(=O)[C@H](Cc1ccc(O)cc1)NC(=O)[C@H](CO)NC(=O)[C@H](CCC(N)=O)NC(=O)[C@@H](NC(=O)[C@H](Cc1ccccc1)NC(=O)[C@@H](NC(=O)[C@H](C)NC(=O)[C@H](CC(=O)O)NC(=O)[C@H](C)NC(=O)[C@H](Cc1ccc(O)cc1)NC)[C@@H](C)CC)[C@@H](C)O)C(C)C)[C@@H](C)CC)C(=O)N[C@@H](CC(=O)O)C(=O)N[C@@H](CCCNC(=N)N)C(=O)NC,"GH release, ELISA","male Sprague-Dawley rat, anaesthetised, serum","subcutaneous, 3 µg/kg, 30 min",serum GH level,282 ± 17.8 ng/mL
O=c1c(OCc2ccccc2)c(-c2ccc(Cl)cc2)oc2ccccc12,,diabetic rat,"7.5 mg/kg, 28 days, p-nitrophenyl β-glucoside induced",serum HDL cholesterol,46.1 ± 2.11 mg/dL
CCCC[C@H](NC(=O)[C@@H](NC(=O)[C@H](CC(=O)O)NC(=O)[C@H](CCC(N)=O)NC(=O)[C@H](CC(C)C)NC(=O)[C@H](CC(C)C)NC(=O)[C@H](CCCN)NC(=O)[C@H](CCCNC(=N)N)NC(=O)[C@H](C)NC(=O)[C@H](CO)NC(=O)[C@H](CC(C)C)NC(=O)[C@H](CCC(N)=O)NC(=O)[C@H](CC)NC(=O)[C@H](CC(C)C)NC(=O)[C@@H](NC(=O)[C@H](CCCN)NC(=O)[C@H](CCCNC(=N)N)NC(=O)[C@H](Cc1ccc(O)cc1)NC(=O)[C@H](CO)NC(=O)[C@H](CC(N)=O)NC(=O)[C@@H](NC(=O)[C@H](Cc1ccccc1)NC(=O)[C@@H](NC(=O)[C@H](C)NC(=O)[C@H](CC(=O)O)NC(=O)[C@@H](CC)NC(=O)CCc1ccc(O)cc1)[C@@H](C)CC)[C@@H](C)O)C(C)C)[C@@H](C)CC)C(=O)N[C@@H](CO)C(=O)N[C@@H](CCCNC(=N)N)C(=O)NCCCC(N)=O,"GH release, ELISA","male rat, anaesthetised, serum","intravenous, 1 µg/kg, 15 min",serum GH level,297 ± 45.6 ng/mL
CN(C)c1ccc(-c2oc3ccccc3c(=O)c2OCc2ccccc2)cc1,,diabetic rat,"7.5 mg/kg, p-nitrophenyl β-glucoside induced",serum alkaline phosphatase,193 ± 4.03 IU
COc1ccc(C2CC(c3ccc(C)cc3)=Nc3ccccc3S2)cc1OC (stereo not drawn),,"Wistar rat, streptozotocin-induced diabetes, serum","20 mg/kg, 28 days",serum creatinine,0.64 ± 0.33 mg/dL
CCCC[C@H](NC(=O)[C@@H](NC(=O)[C@H](CC(=O)O)NC(=O)[C@H](CCC(N)=O)NC(=O)[C@H](CC(C)C)NC(=O)[C@H](CC(C)C)NC(=O)[C@H](CCCN)NC(=O)[C@H](CCCNC(=N)N)NC(=O)[C@H](C)NC(=O)[C@H](CO)NC(=O)[C@H](CC(C)C)NC(=O)[C@H](CCC(N)=O)NC(=O)[C@H](CC)NC(=O)[C@H](CC(C)C)NC(=O)[C@@H](NC(=O)[C@H](CCCN)NC(=O)[C@H](CCCNC(=N)N)NC(=O)[C@H](Cc1ccc(O)cc1)NC(=O)[C@H](CO)NC(=O)[C@H](CCC(N)=O)NC(=O)[C@@H](NC(=O)[C@H](Cc1c(F)c(F)c(F)c(F)c1F)NC(=O)[C@@H](NC(=O)[C@H](C)NC(=O)[C@H](CC(=O)O)NC(=O)[C@@H](C)NC(=O)[C@H](Cc1ccc(O)cc1)NC)[C@@H](C)CC)[C@@H](C)O)C(C)C)[C@@H](C)CC)C(=O)N[C@@H](CC(=O)O)C(=O)N[C@@H](CCCNC(=N)N)C(=O)NC,"GH release, ELISA","male Sprague-Dawley rat, anaesthetised, serum","subcutaneous, 3 µg/kg, 30 min",serum GH level,151 ± 28.5 ng/mL

# A few entries again:
SMILES,assay,system,conditions,measurement,result
CN(C)c1ccc(-c2oc3ccccc3c(=O)c2OCc2ccccc2)cc1,,diabetic rat,"7.5 mg/kg, p-nitrophenyl β-glucoside induced",serum alkaline phosphatase,193 ± 4.03 IU
